Measurements collected from several papers.
Each numbered part is a random draw from the data of one study; scales do not carry over between parts. Several values in a cell are separate wells, animals, samples, runs or records.
Sequence of UniProt Q9BQI3 (whole entry, looked up): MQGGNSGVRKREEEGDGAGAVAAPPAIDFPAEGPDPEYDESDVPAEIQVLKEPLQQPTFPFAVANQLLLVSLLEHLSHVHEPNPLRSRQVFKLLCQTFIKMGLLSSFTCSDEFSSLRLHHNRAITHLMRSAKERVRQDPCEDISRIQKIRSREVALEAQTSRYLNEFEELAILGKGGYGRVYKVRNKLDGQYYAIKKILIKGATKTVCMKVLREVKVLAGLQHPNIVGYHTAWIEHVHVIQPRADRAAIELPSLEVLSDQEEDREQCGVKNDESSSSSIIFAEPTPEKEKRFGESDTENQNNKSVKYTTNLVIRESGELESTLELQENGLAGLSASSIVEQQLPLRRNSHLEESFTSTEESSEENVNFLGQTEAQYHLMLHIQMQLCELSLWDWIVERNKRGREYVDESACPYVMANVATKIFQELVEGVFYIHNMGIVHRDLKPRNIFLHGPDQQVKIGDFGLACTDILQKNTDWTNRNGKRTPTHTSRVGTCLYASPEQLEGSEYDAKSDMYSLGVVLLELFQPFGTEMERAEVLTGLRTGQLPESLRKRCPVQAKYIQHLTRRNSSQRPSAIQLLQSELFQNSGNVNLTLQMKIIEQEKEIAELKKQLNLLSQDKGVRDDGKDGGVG
Sequence of UniProt Q9NY57 (whole entry, looked up): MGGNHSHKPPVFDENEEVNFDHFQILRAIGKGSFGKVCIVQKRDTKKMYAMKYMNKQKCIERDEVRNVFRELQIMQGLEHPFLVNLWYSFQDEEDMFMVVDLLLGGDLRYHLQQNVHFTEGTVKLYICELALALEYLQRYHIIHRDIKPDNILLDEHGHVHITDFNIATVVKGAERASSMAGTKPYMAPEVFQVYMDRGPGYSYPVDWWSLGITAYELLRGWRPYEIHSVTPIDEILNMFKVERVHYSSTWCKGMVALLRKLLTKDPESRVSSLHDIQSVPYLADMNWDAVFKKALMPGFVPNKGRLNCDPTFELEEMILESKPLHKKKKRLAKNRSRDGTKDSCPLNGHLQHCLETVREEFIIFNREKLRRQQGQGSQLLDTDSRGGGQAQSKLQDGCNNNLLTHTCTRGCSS
Sequence of UniProt Q02156 (whole entry, looked up): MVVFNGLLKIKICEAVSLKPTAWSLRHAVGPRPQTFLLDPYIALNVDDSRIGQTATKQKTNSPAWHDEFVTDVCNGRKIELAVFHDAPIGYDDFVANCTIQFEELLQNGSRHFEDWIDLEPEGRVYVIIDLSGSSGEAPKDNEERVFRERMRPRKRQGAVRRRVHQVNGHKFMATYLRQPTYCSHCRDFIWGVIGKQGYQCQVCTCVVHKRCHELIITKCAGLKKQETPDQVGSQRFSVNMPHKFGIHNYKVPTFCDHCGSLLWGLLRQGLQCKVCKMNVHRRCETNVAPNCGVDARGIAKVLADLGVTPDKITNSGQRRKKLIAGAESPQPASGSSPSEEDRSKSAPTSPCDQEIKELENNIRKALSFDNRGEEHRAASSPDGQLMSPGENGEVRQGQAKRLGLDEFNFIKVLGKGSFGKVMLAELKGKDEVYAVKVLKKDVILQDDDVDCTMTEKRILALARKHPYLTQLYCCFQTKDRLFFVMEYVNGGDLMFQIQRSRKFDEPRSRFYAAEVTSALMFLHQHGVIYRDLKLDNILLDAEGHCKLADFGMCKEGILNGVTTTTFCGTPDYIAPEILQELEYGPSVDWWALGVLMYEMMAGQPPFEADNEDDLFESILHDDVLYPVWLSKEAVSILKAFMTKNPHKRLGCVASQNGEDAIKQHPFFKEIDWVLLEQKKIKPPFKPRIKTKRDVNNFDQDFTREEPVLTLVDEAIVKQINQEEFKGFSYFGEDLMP

Study 1
SMILES: O=C(Nc1cnn(-c2csc(C(=O)NC3COC3)c2)c1)Nc1c(F)cccc1Cl
Observed: enzyme activity
Concentration: 5 µM
target	test	scale	remaining activity [%]
MINK1 (Homo sapiens, UniProt Q8N4C8)	–	baseline: untreated control	57.8
TNIK (Homo sapiens, UniProt Q9UKE5)	–	baseline: untreated control	83.1
DYRK4 (Homo sapiens, UniProt Q9NR20)	–	baseline: untreated control	93.5
BMPR1B (Homo sapiens, UniProt O00238)	inhibitor	–	114

Study 2
Target: Calcium/calmodulin-dependent protein kinase type II subunit alpha (CAMK2A, Homo sapiens, UniProt Q9UQM7)
Sequence of UniProt Q9UQM7 (whole entry, looked up): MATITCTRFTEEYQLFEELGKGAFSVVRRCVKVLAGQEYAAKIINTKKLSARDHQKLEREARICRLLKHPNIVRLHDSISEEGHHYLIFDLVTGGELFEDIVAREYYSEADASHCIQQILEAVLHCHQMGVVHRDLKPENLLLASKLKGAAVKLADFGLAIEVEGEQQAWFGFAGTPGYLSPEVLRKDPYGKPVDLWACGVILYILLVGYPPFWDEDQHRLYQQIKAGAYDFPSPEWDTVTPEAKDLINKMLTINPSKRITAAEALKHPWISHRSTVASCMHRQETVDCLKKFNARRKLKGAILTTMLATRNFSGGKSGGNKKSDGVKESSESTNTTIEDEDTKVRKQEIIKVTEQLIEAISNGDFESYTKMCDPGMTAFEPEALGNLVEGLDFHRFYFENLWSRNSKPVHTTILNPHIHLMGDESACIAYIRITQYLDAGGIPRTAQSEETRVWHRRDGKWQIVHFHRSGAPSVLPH
Observed: enzyme activity
Mode: inhibitor
Concentration: 10 µM
SMILES	inhibition
CC(C)[C@@H](C)[C@@H](O)[C@H](O)[C@@H](C)[C@H]1CC[C@H]2[C@@H]3COC(=O)[C@H]4C[C@H](O)[C@H](O)C[C@]4(C)[C@H]3CC[C@]12C	-14%
O=C(CCc1ccccc1)C[C@@H](O)/C=C/c1ccccc1	12%
C/C=C1\[C@H]2C=C(C)C[C@]1(N)c1ccc(=O)[nH]c1C2	11%

Study 3
Organism: Sarcocystis neurona
Observed: parasite growth
Concentration: 10 µM
Time: 96 h
SMILES	inhibition
CC(C(=O)O)c1ccc(-c2ccccc2)c(F)c1 (stereo not drawn)	-9%
COC(=O)C1=C(C)NC(C)=C(C(=O)OC)C1c1ccccc1[N+](=O)[O-]	-6.8%
Clc1ccc2c(c1)C(N1CCNCC1)=Nc1ccccc1O2	-9%

Study 4
SMILES: O=C(NS(=O)(=O)c1ccc(NCC2CCOCC2)c([N+](=O)[O-])c1)c1ccc(N2CCN(Cc3ccc(C(F)(F)F)cc3-c3ccc(Cl)cc3)CC2)cc1Oc1cnc2[nH]ccc2c1
Method: competition with immobilised ligand
Concentration: 1 µM
target	test	remaining binding [%]
PRKAA1 (Homo sapiens, UniProt Q13131)	cell-free assay	84
PIP5K1C (Homo sapiens, UniProt O60331)	cell-free assay	100
CSNK1G3 (Homo sapiens, UniProt Q9Y6M4)	cell-free assay	75
COQ8A (Homo sapiens, UniProt Q8NI60)	cell-free assay	100
PIK3CA (Homo sapiens, UniProt P42336, I800L)	cell-free assay	100
MAPK8 (Homo sapiens, UniProt P45983)	cell-free assay	78
CAMK1G (Homo sapiens, UniProt Q96NX5)	cell-free assay	92
PRKCE (Homo sapiens, UniProt Q02156)	cell-free assay	100
TLK2 (Homo sapiens, UniProt Q86UE8)	cell-free assay	100
FRK (Homo sapiens, UniProt P42685)	cell-free assay	100
LRRK2 (Homo sapiens, UniProt Q5S007)	cell-free assay	100
EIF2AK1 (Homo sapiens, UniProt Q9BQI3)	cell-free assay	84
TESK1 (Homo sapiens, UniProt Q15569)	cell-free assay	100
STK32B (Homo sapiens, UniProt Q9NY57)	cell-free assay	100
MARK1 (Homo sapiens, UniProt Q9P0L2)	cell-free assay	81
Tyrosine-protein kinase ABL1, non-phosphorylated (ABL1, Homo sapiens, UniProt P00519, F317I)	binding	87

Study 5
Host: mouse
Sample: microsomes or S9
Concentration: 2 µM
Time: 0.5 h
Structure (SMILES)	remaining compound [%]
Cc1nc(C)c(S(=O)(=O)N2C[C@H]3CCc4nnc(-c5ccncc5)n4[C@H]3C2)s1	77.4
Cc1nn2cnnc2c(C)c1CCC(=O)Nc1nccs1	15.8
CS(=O)(=O)N1CCN(CCCOc2ccc3c(c2)CN(Cc2cccnc2)C3=O)CC1	58

Study 6
Target: DNA polymerase theta, ATPase domain (POLQ, Homo sapiens, UniProt O75417)
Sequence of UniProt O75417 (whole entry, unmodified, looked up): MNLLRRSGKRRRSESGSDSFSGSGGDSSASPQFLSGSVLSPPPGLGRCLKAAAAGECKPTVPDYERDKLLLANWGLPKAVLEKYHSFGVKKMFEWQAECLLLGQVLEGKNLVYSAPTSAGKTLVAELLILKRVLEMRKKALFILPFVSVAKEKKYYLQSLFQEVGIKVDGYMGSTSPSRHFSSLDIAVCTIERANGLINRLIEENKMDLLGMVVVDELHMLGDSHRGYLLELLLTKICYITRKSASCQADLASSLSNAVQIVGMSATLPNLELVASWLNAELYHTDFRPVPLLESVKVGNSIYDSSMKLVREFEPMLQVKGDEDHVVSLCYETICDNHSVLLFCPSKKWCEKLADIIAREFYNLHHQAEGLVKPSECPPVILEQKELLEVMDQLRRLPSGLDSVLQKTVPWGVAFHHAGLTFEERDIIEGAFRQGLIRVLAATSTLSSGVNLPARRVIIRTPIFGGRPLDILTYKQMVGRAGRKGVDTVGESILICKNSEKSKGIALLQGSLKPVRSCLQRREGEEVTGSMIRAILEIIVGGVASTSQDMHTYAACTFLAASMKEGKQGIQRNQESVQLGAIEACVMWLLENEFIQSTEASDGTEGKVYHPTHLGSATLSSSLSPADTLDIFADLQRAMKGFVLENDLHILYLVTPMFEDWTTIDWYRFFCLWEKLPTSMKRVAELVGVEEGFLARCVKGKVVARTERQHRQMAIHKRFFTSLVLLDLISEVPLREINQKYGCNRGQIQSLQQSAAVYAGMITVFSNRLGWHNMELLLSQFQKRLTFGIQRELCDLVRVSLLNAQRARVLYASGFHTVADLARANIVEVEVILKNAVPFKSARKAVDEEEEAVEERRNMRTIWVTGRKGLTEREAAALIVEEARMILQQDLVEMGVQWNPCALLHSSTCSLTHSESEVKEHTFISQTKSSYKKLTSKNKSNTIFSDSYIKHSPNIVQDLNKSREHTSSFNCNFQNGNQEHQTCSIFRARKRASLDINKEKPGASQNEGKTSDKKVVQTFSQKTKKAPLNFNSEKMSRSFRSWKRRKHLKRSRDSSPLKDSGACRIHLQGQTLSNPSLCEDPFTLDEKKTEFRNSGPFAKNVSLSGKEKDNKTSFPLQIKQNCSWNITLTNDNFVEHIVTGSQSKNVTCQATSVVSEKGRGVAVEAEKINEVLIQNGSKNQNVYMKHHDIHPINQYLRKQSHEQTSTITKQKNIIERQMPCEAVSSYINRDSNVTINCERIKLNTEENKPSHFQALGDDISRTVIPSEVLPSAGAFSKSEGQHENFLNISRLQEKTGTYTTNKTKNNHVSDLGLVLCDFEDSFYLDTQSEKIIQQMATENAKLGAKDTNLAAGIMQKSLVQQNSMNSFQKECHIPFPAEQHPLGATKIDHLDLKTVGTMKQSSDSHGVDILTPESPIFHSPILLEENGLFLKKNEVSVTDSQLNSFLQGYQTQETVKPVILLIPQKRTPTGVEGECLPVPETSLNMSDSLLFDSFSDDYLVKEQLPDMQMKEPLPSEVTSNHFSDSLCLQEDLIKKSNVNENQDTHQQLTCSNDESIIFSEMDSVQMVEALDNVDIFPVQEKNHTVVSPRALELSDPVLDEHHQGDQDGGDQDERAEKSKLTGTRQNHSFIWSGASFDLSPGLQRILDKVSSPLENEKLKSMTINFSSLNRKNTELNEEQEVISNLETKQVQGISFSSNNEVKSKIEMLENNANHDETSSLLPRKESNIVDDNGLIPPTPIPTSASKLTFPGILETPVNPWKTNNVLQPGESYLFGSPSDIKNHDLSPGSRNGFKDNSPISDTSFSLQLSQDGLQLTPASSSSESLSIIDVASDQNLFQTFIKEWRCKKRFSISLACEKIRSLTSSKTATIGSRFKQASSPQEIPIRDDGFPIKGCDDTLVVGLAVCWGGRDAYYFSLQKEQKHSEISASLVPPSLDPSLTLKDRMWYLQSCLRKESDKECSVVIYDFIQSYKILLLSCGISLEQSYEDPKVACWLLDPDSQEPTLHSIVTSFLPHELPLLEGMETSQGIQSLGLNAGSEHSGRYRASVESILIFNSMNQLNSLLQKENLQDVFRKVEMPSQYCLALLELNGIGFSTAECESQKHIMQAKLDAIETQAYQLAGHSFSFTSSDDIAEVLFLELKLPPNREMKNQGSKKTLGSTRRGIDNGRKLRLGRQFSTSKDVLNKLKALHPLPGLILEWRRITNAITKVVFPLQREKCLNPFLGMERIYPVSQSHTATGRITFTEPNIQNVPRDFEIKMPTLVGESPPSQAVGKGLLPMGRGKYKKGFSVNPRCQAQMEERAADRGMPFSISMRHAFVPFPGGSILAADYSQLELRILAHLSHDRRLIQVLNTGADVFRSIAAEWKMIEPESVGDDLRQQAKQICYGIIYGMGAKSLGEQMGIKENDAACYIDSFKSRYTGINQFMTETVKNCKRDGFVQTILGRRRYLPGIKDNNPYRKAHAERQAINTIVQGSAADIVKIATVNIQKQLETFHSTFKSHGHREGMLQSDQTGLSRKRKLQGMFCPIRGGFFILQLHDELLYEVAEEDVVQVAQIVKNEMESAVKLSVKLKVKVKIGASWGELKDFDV
Observed: enzyme activity
Mode: inhibitor
Concentration: 77 µM
Baseline: untreated
Structure (SMILES)	remaining activity
C[C@]12C[C@H](O)[C@H]3[C@@H](CCC4=CC(=O)CC[C@@]43C)[C@@H]1CC[C@@H]2C(=O)CO	99.3% and 103%
Oc1ccc(Cn2cc[nH]c2=S)cc1	102%
COCCCN1CCC(NC(=O)c2cc(Cl)c(N)c3c2OCC3)CC1	101% and 91.1%
OC[C@@H](O)[C@@H](O)CO	95%
